Results collected from several papers.
Each line is one published result; not all experiments were run side by side.
Organism: Mycolicibacterium smegmatis

SMILES | effect on | technique | strain | time | MIC
CN[C@@H]1[C@H](O)[C@H](NC)[C@H]2O[C@]3(O)[C@H](O[C@@H]2[C@H]1O)O[C@H](C)C[C@H]3NC(=O)Cc1ccc(Cl)cn1 | – | – | – | – | 12.5 to 25 µg/mL
O=C(NCc1ccccc1)C(CCc1ccccc1)N(CCc1c[nH]cn1)C(=O)c1ccccc1 (racemic) | – | – | mc2155 | – | > 128 µM
CN[C@@H]1[C@H](O)[C@H](NC)[C@H]2O[C@]3(O)[C@H](O[C@@H]2[C@H]1O)O[C@H](C)C[C@H]3NC(=O)Cc1cc(Cl)ccn1 | – | – | – | – | 12.5 µg/mL
Cc1nc2ccc(Br)cn2c1C(=O)NCc1ccc2oc(-c3ccc(OC(F)(F)F)cc3)nc2c1 | – | – | – | 72 h | > 50 µM
CCc1ccn2c(C(=O)NCc3ccc(C)cc3)c(C)nc2c1 | microbial growth | broth dilution | – | – | > 50 µM
CCCO[C@H]1[C@H](O)[C@@H](N)[C@@H](O[C@H]2[C@H](O[C@@H]3O[C@H](CO)[C@@H](O[C@H]4O[C@@H](CN)[C@@H](O)[C@H](O)[C@H]4N)[C@H]3O)[C@@H](O)[C@H](N)C[C@@H]2N)O[C@@H]1CO | microbial growth | broth dilution | – | 72 h | 8 µg/mL
Cc1ccc2nc(C)c(CC(=O)NCc3ccc(N(C)C)cc3)n2c1 | microbial growth | broth dilution | – | – | > 50 µM
Cc1nc2ccc(Br)cn2c1C(=O)NCc1ccc2oc(-c3ccc(Cl)cc3)nc2c1 | – | – | – | 72 h | > 50 µM
CCO[C@H]1[C@H](O)[C@@H](N)[C@@H](O[C@H]2[C@H](O[C@@H]3O[C@H](CO)[C@@H](O[C@H]4O[C@@H](CN)[C@@H](O)[C@H](O)[C@H]4N)[C@H]3O)[C@@H](O)[C@H](N)C[C@@H]2N)O[C@@H]1CO | microbial growth | broth dilution | – | 72 h | 4 to 8 µg/mL
Cc1ccc(CNC(=O)Cc2c(C)nc3ccc(C)cn23)cc1 | microbial growth | broth dilution | – | – | > 50 µM
Cc1nc2cc(OC(F)(F)F)ccn2c1C(=O)NCc1ccc2oc(-c3ccc(OC(F)(F)F)cc3)nc2c1 | – | – | – | 72 h | > 50 µM
